Experimental data pooled from the literature.
Each line is one published result; not all experiments were run side by side. Values joined by “and” are separate records of one study, mostly repeats; a detail may differ. Numbers after ± are the reported error.
ALOX5: Polyunsaturated fatty acid 5-lipoxygenase (ALOX5, Homo sapiens, UniProt P09917)
UniProt P09917, sequence (whole entry, looked up): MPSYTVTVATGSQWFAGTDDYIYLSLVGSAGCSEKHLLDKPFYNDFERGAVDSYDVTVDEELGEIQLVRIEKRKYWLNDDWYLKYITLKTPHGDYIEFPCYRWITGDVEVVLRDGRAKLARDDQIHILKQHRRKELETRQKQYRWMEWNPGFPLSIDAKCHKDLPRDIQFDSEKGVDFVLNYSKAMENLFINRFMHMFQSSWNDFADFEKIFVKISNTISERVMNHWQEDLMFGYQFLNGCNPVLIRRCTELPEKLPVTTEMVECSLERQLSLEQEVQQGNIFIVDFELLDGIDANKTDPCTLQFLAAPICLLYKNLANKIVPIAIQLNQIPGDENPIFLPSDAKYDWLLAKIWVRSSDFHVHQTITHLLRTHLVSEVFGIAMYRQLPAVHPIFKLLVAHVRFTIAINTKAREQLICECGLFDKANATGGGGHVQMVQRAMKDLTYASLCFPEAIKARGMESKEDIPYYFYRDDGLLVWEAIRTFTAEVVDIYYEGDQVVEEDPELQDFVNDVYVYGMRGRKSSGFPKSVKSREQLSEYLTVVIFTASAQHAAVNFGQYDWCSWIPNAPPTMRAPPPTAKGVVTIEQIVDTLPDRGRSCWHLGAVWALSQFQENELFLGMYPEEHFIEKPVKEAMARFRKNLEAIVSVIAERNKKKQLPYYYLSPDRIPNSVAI
ADORA1: Adenosine receptor A1 (ADORA1, Homo sapiens, UniProt P30542)
UniProt P30542, sequence (whole entry, looked up): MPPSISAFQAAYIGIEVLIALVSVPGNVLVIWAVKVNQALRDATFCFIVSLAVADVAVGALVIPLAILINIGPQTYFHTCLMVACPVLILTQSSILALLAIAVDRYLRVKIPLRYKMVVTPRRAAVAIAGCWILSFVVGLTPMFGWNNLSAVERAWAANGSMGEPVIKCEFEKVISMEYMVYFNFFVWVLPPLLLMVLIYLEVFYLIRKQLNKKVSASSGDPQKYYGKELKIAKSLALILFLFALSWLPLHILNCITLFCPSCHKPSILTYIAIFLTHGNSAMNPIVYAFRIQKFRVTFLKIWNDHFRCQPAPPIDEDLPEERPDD
Ephx2: Bifunctional epoxide hydrolase 2 (Ephx2, Mus musculus, UniProt P34914)
UniProt P34914, sequence (whole entry, looked up): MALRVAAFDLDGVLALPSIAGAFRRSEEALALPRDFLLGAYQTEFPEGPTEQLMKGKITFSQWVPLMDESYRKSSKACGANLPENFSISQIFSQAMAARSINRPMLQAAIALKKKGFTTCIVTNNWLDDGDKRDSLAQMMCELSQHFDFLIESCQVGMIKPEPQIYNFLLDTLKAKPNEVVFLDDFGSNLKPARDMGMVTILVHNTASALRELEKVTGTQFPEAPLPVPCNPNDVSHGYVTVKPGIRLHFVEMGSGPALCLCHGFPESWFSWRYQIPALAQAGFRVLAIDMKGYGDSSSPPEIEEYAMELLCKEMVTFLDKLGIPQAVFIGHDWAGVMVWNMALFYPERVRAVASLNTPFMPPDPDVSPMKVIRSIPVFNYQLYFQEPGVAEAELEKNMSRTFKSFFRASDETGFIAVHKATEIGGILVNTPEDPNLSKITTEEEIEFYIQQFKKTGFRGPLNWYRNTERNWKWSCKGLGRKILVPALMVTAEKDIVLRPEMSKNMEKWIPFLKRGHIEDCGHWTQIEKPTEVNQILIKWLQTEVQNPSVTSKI
RIPK2: Receptor-interacting serine/threonine-protein kinase 2 (RIPK2, Homo sapiens, UniProt O43353)
UniProt O43353, sequence (whole entry, looked up): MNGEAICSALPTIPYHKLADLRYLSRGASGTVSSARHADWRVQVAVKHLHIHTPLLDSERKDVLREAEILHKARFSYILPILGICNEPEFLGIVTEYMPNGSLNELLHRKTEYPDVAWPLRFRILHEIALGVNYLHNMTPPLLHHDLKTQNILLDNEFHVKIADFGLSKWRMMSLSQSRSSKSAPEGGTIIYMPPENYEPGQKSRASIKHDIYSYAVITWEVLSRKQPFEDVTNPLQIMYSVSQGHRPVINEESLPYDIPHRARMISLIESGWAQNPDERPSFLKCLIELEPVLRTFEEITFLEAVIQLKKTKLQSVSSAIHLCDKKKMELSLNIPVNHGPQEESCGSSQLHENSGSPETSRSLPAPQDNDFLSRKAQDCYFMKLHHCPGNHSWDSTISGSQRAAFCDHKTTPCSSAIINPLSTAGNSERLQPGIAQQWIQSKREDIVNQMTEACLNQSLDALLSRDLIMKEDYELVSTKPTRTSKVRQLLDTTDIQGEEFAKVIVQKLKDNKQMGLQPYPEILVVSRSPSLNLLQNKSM
CD274: Programmed cell death 1 ligand 1 (CD274, Homo sapiens, UniProt Q9NZQ7)
UniProt P11802, sequence (whole entry, looked up): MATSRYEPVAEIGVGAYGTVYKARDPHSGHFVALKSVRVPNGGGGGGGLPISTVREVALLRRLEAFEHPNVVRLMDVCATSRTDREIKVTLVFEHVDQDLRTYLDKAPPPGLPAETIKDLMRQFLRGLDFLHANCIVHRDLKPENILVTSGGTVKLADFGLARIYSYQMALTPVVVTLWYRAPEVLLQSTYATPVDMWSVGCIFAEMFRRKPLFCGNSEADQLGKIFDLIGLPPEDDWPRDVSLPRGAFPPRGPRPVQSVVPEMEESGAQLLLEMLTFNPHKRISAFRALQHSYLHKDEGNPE
UniProt Q9Y3Z3, sequence (whole entry, looked up): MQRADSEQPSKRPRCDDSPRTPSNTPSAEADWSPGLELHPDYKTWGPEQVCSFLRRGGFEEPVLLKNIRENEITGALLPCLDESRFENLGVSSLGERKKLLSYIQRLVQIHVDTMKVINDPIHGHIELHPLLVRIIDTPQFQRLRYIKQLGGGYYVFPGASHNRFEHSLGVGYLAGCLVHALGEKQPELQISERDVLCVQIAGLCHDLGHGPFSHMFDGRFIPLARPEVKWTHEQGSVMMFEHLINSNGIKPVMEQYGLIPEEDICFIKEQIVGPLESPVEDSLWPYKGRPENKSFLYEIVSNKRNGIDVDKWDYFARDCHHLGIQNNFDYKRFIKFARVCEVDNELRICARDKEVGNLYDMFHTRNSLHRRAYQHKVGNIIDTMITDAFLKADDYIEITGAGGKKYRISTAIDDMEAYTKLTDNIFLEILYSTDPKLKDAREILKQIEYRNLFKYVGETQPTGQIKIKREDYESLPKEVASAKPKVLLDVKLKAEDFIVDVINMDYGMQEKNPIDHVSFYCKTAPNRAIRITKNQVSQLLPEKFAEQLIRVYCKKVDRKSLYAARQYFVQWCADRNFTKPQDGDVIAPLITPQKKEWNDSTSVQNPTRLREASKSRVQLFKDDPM
UniProt Q8IUQ4, sequence (81-282, looked up): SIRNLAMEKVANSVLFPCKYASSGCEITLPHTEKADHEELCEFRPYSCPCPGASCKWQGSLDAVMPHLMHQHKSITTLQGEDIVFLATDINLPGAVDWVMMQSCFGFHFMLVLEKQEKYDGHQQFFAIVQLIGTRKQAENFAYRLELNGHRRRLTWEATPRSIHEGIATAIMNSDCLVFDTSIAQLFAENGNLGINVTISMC
UniProt Q13882, sequence (whole entry, looked up): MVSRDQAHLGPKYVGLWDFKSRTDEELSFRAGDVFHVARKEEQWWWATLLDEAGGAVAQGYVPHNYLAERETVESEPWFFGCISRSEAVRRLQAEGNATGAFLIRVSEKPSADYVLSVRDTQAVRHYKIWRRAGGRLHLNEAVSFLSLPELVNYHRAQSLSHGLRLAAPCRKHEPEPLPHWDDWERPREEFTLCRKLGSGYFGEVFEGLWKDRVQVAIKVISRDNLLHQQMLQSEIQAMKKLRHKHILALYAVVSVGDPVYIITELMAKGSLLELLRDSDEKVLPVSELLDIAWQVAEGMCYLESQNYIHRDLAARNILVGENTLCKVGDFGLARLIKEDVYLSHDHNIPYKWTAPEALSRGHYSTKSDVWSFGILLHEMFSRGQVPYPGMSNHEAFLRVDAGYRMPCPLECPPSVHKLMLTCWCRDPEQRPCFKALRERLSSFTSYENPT
UniProt P17812, sequence (whole entry, unmodified, looked up): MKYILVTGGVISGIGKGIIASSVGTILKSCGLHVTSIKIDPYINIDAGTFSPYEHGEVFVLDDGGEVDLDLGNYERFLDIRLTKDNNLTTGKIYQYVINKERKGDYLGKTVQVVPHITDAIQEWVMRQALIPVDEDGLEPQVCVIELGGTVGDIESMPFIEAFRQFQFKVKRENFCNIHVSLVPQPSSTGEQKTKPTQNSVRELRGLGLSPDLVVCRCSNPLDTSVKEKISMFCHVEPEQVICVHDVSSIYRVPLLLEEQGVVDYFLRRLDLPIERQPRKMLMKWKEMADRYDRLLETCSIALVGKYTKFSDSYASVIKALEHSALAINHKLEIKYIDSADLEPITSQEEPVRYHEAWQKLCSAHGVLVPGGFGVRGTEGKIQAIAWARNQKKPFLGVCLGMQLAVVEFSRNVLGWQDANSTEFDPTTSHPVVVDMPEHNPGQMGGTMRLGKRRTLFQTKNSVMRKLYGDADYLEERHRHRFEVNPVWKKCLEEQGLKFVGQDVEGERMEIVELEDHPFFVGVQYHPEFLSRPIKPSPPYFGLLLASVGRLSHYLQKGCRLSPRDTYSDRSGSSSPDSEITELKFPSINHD
UniProt P28222, sequence (whole entry, looked up): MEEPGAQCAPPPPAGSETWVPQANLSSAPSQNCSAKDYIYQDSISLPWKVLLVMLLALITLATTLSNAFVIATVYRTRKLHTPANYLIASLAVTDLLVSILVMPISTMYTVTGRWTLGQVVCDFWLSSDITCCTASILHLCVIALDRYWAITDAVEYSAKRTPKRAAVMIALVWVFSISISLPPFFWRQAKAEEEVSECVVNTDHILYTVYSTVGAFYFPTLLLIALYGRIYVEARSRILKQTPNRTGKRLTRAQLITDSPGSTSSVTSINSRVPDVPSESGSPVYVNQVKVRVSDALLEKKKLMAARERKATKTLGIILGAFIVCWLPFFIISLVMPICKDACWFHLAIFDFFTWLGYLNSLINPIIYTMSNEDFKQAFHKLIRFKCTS
UniProt P21964, sequence (whole entry, looked up): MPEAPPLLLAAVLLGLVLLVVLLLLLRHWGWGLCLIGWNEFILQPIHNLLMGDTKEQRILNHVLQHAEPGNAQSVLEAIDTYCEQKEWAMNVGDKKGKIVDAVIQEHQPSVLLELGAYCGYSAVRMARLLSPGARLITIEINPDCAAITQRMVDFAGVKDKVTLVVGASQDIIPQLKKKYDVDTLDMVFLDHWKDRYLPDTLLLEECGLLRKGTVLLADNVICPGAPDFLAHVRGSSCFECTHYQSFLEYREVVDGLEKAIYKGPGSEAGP

For `CCC=CCC=CCC=CCC=CCC=CCCCC(=O)Oc1cc(C(=O)O[C@@H]2Cc3c(O)cc(O)cc3O[C@@H]2c2cc(OC(=O)CCCC=CCC=CCC=CCC=CCC=CCC)c(O)c(OC(=O)CCCC=CCC=CCC=CCC=CCC=CCC)c2)cc(OC(=O)CCCC=CCC=CCC=CCC=CCC=CCC)c1O`, the IC50 was 0.006 µM (Genome polyprotein, protease (Hepatitis C virus genotype 1a, UniProt P27958); enzyme activity, inhibitor, fluorescence).
`COC(=O)C1C(c2nc3cc(OC)ccc3[nH]2)=Cc2cc3c(cc2C1c1cc(OC)c(OC)c(OC)c1)OCO3` (stereo not shown) has an IC50 of 0.7 µM and 0.66 µM (tubulin alpha/beta (Leishmania infantum, UniProt A0A381MCS3+A4HTR0); tubulin polymerization, inhibitor; 37 °C).
The IC50 of `COc1cc(O)ccc1CC[C@@H](c1ccc(O)cc1)c1cc2c(c(C)c1O)O[C@H](c1ccc(O)cc1)CC2` is reported as 0.8 µM (ALOX5; 5-LO product formation; human PMNL; added: A23187 plus arachidonic acid).
`O=C1NC(=S)S/C1=C\c1ccc(O)c([N+](=O)[O-])c1` gave an IC50 of 11 µM (PIK3CA (Homo sapiens, UniProt P42336); enzyme activity, inhibitor, radiometric).
For `COc1ccc(SCC(=O)c2ccc(O)cc2O)cc1`, the IC50 was 5.48 µM (ESR2 (Homo sapiens, UniProt Q92731); coactivator recruitment, antagonist).
The IC50 of `Oc1cc(O)c2c(c1)O[C@H](c1ccc(O)c(O)c1)[C@@H](O)[C@@H]2c1c(O)cc(O)c2c1O[C@H](c1ccc(O)c(O)c1)[C@H](O)[C@H]2c1c(O)cc(O)c2c1O[C@H](c1ccc(O)c(O)c1)[C@H](O)C2` is reported as 2.2 ± 0.1 µM (alpha-glucosidase (Bacillus stearothermophilus); inhibitor; 20 min, pH 6.8, 60 °C, added: pNPG substrate).
For `COc1ccc2c(c1)c1c(n2CO)CN2CCc3cc(OC)c(OCc4ccccc4)cc3C2C1` (stereo not shown), the IC50 was 40.8 µM (HTR1B (Homo sapiens, UniProt P28222); ligand displacement in cells, radioligand).
For `CC[C@H](C)[C@H](NC(=O)[C@@H](C[C@H](O)[C@@H](N)COc1ccc(-c2ccccc2)c(OCCCOC)c1)OC)C(=O)NCc1ccc(Cl)cc1`, the IC50 was 2.5 µM (Beta-secretase 1 (BACE1, Homo sapiens, UniProt P56817); enzyme activity, inhibitor; pH 4.5).
`CNC(=O)C1CCN(c2ccccc2NC(=O)c2ccc(-c3c(C)ccc4[nH]ncc34)c(C)c2)CC1` gave an IC50 of 5.67 µM (FGR (Homo sapiens, UniProt P09769); target engagement in cells, BRET).
`C=CC(=O)N1CCc2ccc(-n3c(=O)ccc4cnc5ccc(-c6cnn(C)c6)cc5c43)cc21` has an IC50 of greater than 10 µM (PTK6 (Homo sapiens, UniProt Q13882); enzyme activity, inhibitor).
For `COc1cc(O)c(C(=O)/C=C/c2ccccc2)c(O)c1OC`, the IC50 was greater than 10 µg/mL (α-glucosidase (Saccharomyces cerevisiae); inhibitor; added: pNPG).
With `COCc1cc2c(cn1)CN(C(=O)Nc1nc(-c3ccc(F)cc3)ccc1N)C2` the IC50 was greater than 30 µM (HDAC7 (Homo sapiens, UniProt Q8WUI4); deacetylase activity, inhibitor, recombinant enzyme).
With `Cc1cc(NC(=O)c2cccc(-n3cc(NC(=O)Nc4ccc(Cl)cc4)cn3)c2)ccn1` the IC50 was 0.514 µM (MAPK10 (Homo sapiens, UniProt P53779); enzyme activity, inhibitor, TR-FRET).
`CCNC(=O)[C@H]1O[C@@H](n2cnc3c(NCCOCCOCCNC(=O)CCCCCNC(=O)COc4ccc(/C=C/C5=[N+]6C(=Cc7ccc(-c8cccs8)n7[B-]6(F)F)C=C5)cc4)ncnc32)[C@H](O)[C@@H]1O` has an IC50 of 0.0631 µM (ADORA1; CRE reporter gene, agonist; CHO-A1; Gi-mediated inhibition, added: forskolin).
`CN(Cc1cc(C2CC2)on1)C(=O)c1cccc(-c2ccncc2)c1` has an IC50 of greater than 50 µM (Acetyl-CoA synthetase (Cryptococcus neoformans, UniProt J9VFT1)).
`O=C(NC1CCCCCC1)NC1CCCCC1` has an IC50 of 0.05 µM (Ephx2; enzyme activity, inhibitor, absorbance; pH 7.4, with preincubation).
With `COc1c(O[C@@H]2O[C@H](C(=O)O)[C@@H](O)[C@H](O)[C@H]2O)cc(O)c2c(=O)cc(-c3ccccc3)oc12` the IC50 was greater than 100 µM (COMT (Homo sapiens, UniProt P21964); enzyme activity, inhibitor, fluorescence).
For `CC(C)NC(=O)N1CC=C(c2cc3c(Nc4cc5ncsc5cc4F)ncnc3s2)CC1`, the IC50 was 0.01 µM (RIPK2; enzyme activity, inhibitor).
The IC50 of `CCNC(=O)[C@H]1O[C@@H](n2cnc3c(NCCCCNC(=O)CCCCCNS(=O)(=O)c4ccc(C5=c6cc7c8c(c6Oc6c5cc5c9c6CCCN9CCC5)CCC[N+]=8CCC7)c(S(=O)(=O)[O-])c4)ncnc32)[C@H](O)[C@@H]1O` is reported as 0.891 µM (ADORA1; CRE reporter gene, agonist; CHO-A1; Gi-mediated inhibition, added: forskolin).
For `COc1ccc(C(=O)CCc2cc(C(CCc3ccc(O)cc3OC)c3ccc(O)cc3)c(O)cc2OC)cc1` (racemic), the IC50 was 0.51 µM (ALOX5; enzyme activity, inhibitor, HPLC).
The IC50 of `O=C(/C=C/c1ccccc1)Oc1ccc2c(c1)O/C(=C\C=C\c1ccccc1)C2=O` is reported as roughly 1 µM (PIK3CG (Homo sapiens, UniProt P48736); enzyme activity, inhibitor, ELISA).
The IC50 of `CC(C)CNC(=O)[C@H](Cc1ccccc1)NC(=O)[C@H](Cc1c[nH]c2ccccc12)NC(=O)[C@H](CCCNC(=N)N)NC(=O)OC(C)(C)C` is reported as 339 ± 27 µM (Protein Mdm4, with p53 (MDM4, Homo sapiens, UniProt O15151); MDMX-p53 binding, inhibitor, competitive ELISA).
`C(=N\N=c1\scc(-c2ccccc2)n1-c1ccccc1)/c1ccc(N2CCOCC2)cc1` has an IC50 of 24.4 µM (CA2 (Bos taurus, UniProt P00921); enzyme activity, inhibitor, absorbance).
`O=C(Nc1ccc(Cl)cc1)c1cccc(S(=O)(=O)NC2CC2)c1` has an IC50 of 1.78 µM (Ectonucleoside triphosphate diphosphohydrolase 8 (Homo sapiens, UniProt Q5MY95); enzyme activity, inhibitor, absorbance).
For `COc1ccc([C@@H](C#N)N2CCN(C(=O)c3nn(-c4ccccc4)c(=O)c4ccccc34)CC2)cc1`, the IC50 was 0.906 µM (B- and T-lymphocyte attenuator, with HVEM (BTLA, Homo sapiens, UniProt Q7Z6A9); BTLA-HVEM binding, inhibitor, competitive ELISA).
`O=C1C2=C(Nc3ccccc3SC2c2ccsc2)c2ccccc21` (racemic) has an IC50 of 0.004 ± 0.0014 µM (MT-CYB, bc1 complex (Plasmodium falciparum, UniProt Q02768); enzyme activity, inhibitor; purified mitochondrial fractions).
`CCOc1cncc(-c2ccc(NC(=O)C(CC)c3ccnc(NS(=O)(=O)C4CC4)n3)nc2)n1` (stereo not shown) gave an IC50 of 1.43 µM (CTP synthase 1 (Homo sapiens, UniProt P17812, I250T); cell growth; CTPS-null Jurkat expressing CTP synthase 1; 3 d).
`CCOC(=O)C1=C(C)NC2=C(C(=O)CC(C)(C)C2)C1c1ccc(OCC(=O)NN=Cc2cccc([N+](=O)[O-])c2)cc1OCC(=O)NN=Cc1cccc([N+](=O)[O-])c1` (stereo not shown) has an IC50 of 17.1 ± 0.39 µM (MAL32 (Saccharomyces cerevisiae, UniProt P38158); inhibitor; pH 6.8, 37 °C, added: p-nitrophenyl α-D-glucopyranoside 0.7 mM).
The IC50 of `O=c1ccc2ccc(O[C@@H]3O[C@H](CO)[C@@H](O)[C@H](O)[C@H]3O)cc2o1` is reported as greater than 100 µM (PTPN1 (Homo sapiens, UniProt P18031); enzyme activity, inhibitor, absorbance).
`CCOC(=O)C(C)NC(=O)CN1C(=O)S/C(=C\c2ccc(F)cc2)C1=O` (stereo not shown) gave an IC50 of greater than 100 µM (α-amylase; enzyme activity, DNSA colorimetric).
`CC1(C)CC[C@]2(C)CC[C@]3(C)[C@H]([C@@H](O)C[C@@H]4[C@@]5(C)CCCC(C)(C)[C@@H]5CC[C@]43C)[C@@H]2C1` gave an IC50 of greater than 100 µM (α-glucosidase Saccharomyces cerevisiae; added: p-nitrophenyl glucoside).
`O=C(Nc1ccc(-c2nc(-c3ccccc3)cs2)cc1)C1CCN(Cc2ccc(F)cc2F)CC1` gave an IC50 of greater than 10 µM (Ephx2; enzyme activity, inhibitor, fluorescence; pH 7.4, with preincubation).
`CN(C(=O)c1ccn2ncc(-c3ccc(C(N)=O)cc3)c2c1)c1ccc(C#N)cn1` has an IC50 of greater than 10 µM (Cyclin-dependent kinase 4, with cyclin D1 (CDK4, Homo sapiens, UniProt P11802); inhibitor).
`C[C@@](Cc1c[nH]c2ccccc12)(NC(=O)Nc1ccc([N+](=O)[O-])cc1)C(=O)NCC1CCCCC1` — result for IC50: “no inhibition” (FPR1 (Homo sapiens, UniProt P21462); Ca2+ flux, antagonist; HL-60 transfected with FPR1; up to 50 µM, 30 min pretreatment, added: fMLF 5 nM).
The IC50 of `Cc1ccc2oc(-c3c4c(N)n[nH]c(=O)c4nn3-c3ccc(NC(=O)/C=C/CN(C)C)cc3)c(C)c2c1` is reported as greater than 1 µM (CDK4 (Homo sapiens, UniProt P11802); enzyme activity, inhibitor).
`O=c1c2ccccc2on1-c1ccccc1` has an IC50 of greater than 10 µM (HDAC4 (Homo sapiens, UniProt P56524); enzyme activity, inhibitor).
The IC50 of `CCC(=O)NC1CC=C(c2cc3c(Nc4ccc5scnc5c4)ncnc3s2)CC1` (stereo not shown) is reported as 0.014 µM (RIPK2; enzyme activity, inhibitor).
With `COc1ccc(/C=C/C(=O)CC(=O)/C=C/c2ccc(OC)c(OC)c2)cc1` the IC50 was 113 µM (PNLIP (Sus scrofa, UniProt P00591); enzyme activity, inhibitor, absorbance).
The IC50 of `C[C@@H]1NC(=O)[C@H](Cc2c[nH]c3ccccc23)NC(=O)CNC(=O)c2cc3cc(c2)C(=O)NC[C@@H](C(=O)NCCC(=O)NCCC(=O)N[C@@H](CCCCN)C(N)=O)NC(=O)[C@H](CCCNC(=N)N)NC(=O)[C@@H](CCCNC(=N)N)NC(=O)[C@H](CCCNC(=N)N)NC(=O)[C@H](Cc2ccc4ccccc4c2)NC(=O)[C@H](Cc2ccccc2)NC(=O)[C@H](CNC3=O)NC(=O)[C@H](C)NC(=O)[C@H](Cc2ccc(O)cc2)NC1=O` is reported as 1.7 ± 0.1 µM (NF-kappa-B essential modulator, with IKK-beta (IKBKG, Homo sapiens, UniProt Q9Y6K9); inhibitor, HTRF).
`C=CC(=O)NCCCC[C@H](NC(=O)[C@@H]1CCCN1C(=O)[C@H](CCCNC(=N)N)NC(=O)[C@@H](NC(=O)[C@H](CCSC)NC(=O)[C@H](C)NC(=O)[C@@H](NC(=O)[C@@H]1CCCN1C(=O)[C@H](CCCNC(=N)N)NC(=O)[C@H](CC(C)C)NC(=O)[C@H](CCCCN)NC(=O)[C@H](CCC(N)=O)NC(=O)[C@@H]1CCCN1C(=O)[C@H](CCCNC(=N)N)NC(=O)[C@H](CCCNC(=N)N)NC(=O)[C@H](CCCNC(=N)N)NC(=O)[C@H](CCC(N)=O)NC(=O)[C@H](CCCNC(=N)N)NC(=O)[C@H](CCCNC(=N)N)NC(=O)[C@H](CCCCN)NC(=O)[C@H](CCCCN)NC(=O)[C@H](CCCNC(=N)N)NC(=O)CNC(C)=O)C(C)C)C(C)C)C(=O)N[C@H](C(=O)N[C@@H](CCCNC(=N)N)C(N)=O)C(C)C` gave an IC50 of 0.1 µM (E3 ubiquitin-protein ligase SIAH1, part residues 81-282 (SIAH1, Homo sapiens, UniProt Q8IUQ4)).
`CC(Cl)C(=O)Nc1ccc2nc(NCCCCCN(C)C)nc(NCCCCCCN(C)C)c2c1` (stereo not shown) gave an IC50 of 80.3 µM (SETDB1 (Homo sapiens, UniProt Q15047); enzyme activity, inhibitor).
The IC50 of `O=C(O)C(CO)NCc1cc(Cl)c(OCc2cccc(-c3ccccc3)c2Br)cc1OCc1cccnc1` (stereo not shown) is reported as 0.00032 µM (CD274; protein-protein interaction, inhibitor, ELISA).
The IC50 of `C[C@@]12CC[C@@H]3c4cc(Cl)c(O)cc4CC[C@H]3[C@@H]1CCC2=O` is reported as 2.1 µM (AKR1C2 (Homo sapiens, UniProt P52895); enzyme activity, inhibitor, absorbance; pH 9).
For `CCCC[C@H]1C(=O)NCC(=O)N[C@@H](CC(=O)O)C(=O)N[C@@H](C(C)C)C(=O)N(C)[C@@H](Cc2ccccc2)C(=O)N[C@@H](Cc2ccc(O)cc2)C(=O)N(C)CC(=O)N[C@@H](Cc2c[nH]c3ccccc23)C(=O)N[C@@H](Cc2ccc(O)cc2)C(=O)N[C@@H](CC(C)C)C(=O)N[C@H](C(=O)NCC(N)=O)CSCC(=O)N[C@@H](Cc2ccccc2)C(=O)N(C)[C@@H](Cc2ccccc2)C(=O)N1C`, the IC50 was 0.133 ± 0.00123 µM (CD274; binding, inhibitor, HTRF).
`NCCCOP(=O)(O)OCC1OC(n2cnc3c(=O)[nH]c(N)nc32)CC1O` (stereo not shown) has an IC50 of 140 µM (SAMHD1 (Homo sapiens, UniProt Q9Y3Z3); enzyme activity, inhibitor, absorbance).
`N#Cc1ccc(N(Cc2ccc(OS(N)(=O)=O)c(F)c2F)n2cnnc2)cc1` has an IC50 of 0.01 to 0.1 µM (Steryl-sulfatase (STS, Homo sapiens, UniProt P08842); enzyme activity, inhibitor; JEG-3 intact monolayers).
